Published values gathered from unrelated publications.
A part holds a random share of what one study measured.

Block 1
Target: Transcriptional repressor CTCF (CTCF, Homo sapiens, UniProt P49711, residues 1-727, full length assumed)
Sequence of UniProt P49711 (whole entry, looked up): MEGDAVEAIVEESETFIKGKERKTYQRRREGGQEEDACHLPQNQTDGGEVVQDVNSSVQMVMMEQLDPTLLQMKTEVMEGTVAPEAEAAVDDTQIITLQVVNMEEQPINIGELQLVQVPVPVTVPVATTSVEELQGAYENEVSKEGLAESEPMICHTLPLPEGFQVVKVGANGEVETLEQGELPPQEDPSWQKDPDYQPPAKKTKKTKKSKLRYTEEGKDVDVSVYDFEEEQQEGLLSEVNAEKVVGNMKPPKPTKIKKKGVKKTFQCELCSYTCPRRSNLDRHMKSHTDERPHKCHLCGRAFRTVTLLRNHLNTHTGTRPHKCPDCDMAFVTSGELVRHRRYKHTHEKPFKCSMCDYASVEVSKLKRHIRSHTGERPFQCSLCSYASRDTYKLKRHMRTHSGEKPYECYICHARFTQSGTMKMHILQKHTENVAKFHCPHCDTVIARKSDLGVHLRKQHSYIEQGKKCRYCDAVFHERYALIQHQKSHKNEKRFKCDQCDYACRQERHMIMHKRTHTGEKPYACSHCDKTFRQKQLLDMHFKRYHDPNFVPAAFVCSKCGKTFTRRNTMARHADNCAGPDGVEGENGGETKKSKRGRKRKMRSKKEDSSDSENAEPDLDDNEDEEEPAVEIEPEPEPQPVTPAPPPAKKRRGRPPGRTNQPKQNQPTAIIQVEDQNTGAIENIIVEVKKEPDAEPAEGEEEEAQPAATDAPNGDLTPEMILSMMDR
Method: protein-binding microarray
Form: double-stranded DNA, one strand shown
Matrix: in vitro
Tested at: not given
Notes: k-mer, scored over probes, only values ≥0.25
Reading: higher = stronger binding
Sequence	E-score
CGCGAGTA	0.29
AGCGCCCT	0.255
ATAAATAG	0.278
ATACGTAA	0.263
GGACGTTA	0.257
ATGTAAAC	0.267

Block 2
Target: Probable WRKY transcription factor 33, N-terminal DNA-binding domain (WRKY33, Arabidopsis thaliana, UniProt Q8S8P5, residues 169-264)
Method: DNA-protein interaction ELISA
Form: double-stranded DNA, one strand shown
Matrix: in vitro, bacterial lysate
Tested at: not given
Notes: whole dsDNA probe, crude lysate protein
Relative to: highest signal in screen
Reading: higher = stronger binding
Target sequence (chain): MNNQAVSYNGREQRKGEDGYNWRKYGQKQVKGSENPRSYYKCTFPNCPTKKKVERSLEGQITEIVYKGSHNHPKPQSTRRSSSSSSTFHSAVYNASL
Sequence	relative absorbance
AAAAAATGGATCTTTACTTTAGGCCAAAAA	22.1 % of maximum
AAAAAAACTCACGGCGTCACTATGGTAAAA	17.7 % of maximum
AAAAAATTAGTCCTGATTCAATCTTCAAAA	33.6 % of maximum

Block 3
Target: Histone acetyltransferase KAT6A, winged helix 1, GST fusion (KAT6A, Homo sapiens, UniProt Q92794, residues 1-85)
Method: protein binding microarray
Form: double-stranded DNA, one strand shown
Matrix: in vitro
Tested at: not given
Notes: 8-mer, flanks averaged, mean of 2 arrays, mostly near background
Relative to: not given
Reading: higher = stronger binding
Construct (chain): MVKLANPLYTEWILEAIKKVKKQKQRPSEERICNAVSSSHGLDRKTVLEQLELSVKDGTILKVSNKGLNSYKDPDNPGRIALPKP
Sequence	E-score
AATCCCGG	0.23
GAAATCCC	0.0157
GGAAACAC	0.151
ATTATGGC	0.00713
GATCCGAC	0.242
AGCGACTG	0.0314

Further values, each from its own experiment
Molecule	target	test	system	conditions	how to read	quantity	value
PhoQ, residues 284 288 289 292 302 303 SLKLQV	PhoP, residues 12 14 15 18 19 LHHSG (Escherichia coli, UniProt P23836)	Sort-seq, item: YFP reporter	E. coli	PhoQ-PhoP variant library, with: 10 µM Mg2+	relative to: high Mg2+ state, higher = stronger signaling	fold induction	0.801

A few entries again (block 1):
Sequence	E-score
AGCGCCCT	0.255
CGCGAGTA	0.29
ATAAATAG	0.278
